Measurements pooled from the literature.
Parts stem from different laboratories: compare values within a part only.

Set 1 — method: universal PBM; molecule type: double-stranded DNA, one strand shown; matrix: in vitro; concentration: not given; direction: higher = stronger binding; quantity: E-score
Target: Sal-like protein 4, full length isoform B (SALL4, Homo sapiens, UniProt Q9UJQ4-2, residues 1-616)
Notes: 8-mer, flanks averaged, mean of replicates
Construct (chain): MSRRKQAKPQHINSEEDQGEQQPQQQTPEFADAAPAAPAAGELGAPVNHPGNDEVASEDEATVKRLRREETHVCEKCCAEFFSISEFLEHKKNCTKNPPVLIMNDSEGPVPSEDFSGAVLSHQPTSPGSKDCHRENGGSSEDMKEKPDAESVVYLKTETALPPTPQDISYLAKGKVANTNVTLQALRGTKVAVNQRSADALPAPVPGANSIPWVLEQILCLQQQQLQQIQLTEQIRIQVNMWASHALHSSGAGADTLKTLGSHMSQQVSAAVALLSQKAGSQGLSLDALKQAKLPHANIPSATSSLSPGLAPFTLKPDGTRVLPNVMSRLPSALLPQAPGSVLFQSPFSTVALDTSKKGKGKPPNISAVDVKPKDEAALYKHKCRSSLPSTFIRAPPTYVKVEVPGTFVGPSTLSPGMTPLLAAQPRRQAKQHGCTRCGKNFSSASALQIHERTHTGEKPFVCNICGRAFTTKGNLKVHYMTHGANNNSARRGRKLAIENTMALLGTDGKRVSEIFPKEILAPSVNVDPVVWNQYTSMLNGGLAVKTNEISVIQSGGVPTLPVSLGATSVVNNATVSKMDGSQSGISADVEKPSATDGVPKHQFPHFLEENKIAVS
AAAGAGTT: 0.209
AGTTCACG: -0.0574
CCGGCAGA: -0.326
GAGTGCAA: 0.0402
ACCTGTAC: 0.067
ATGAACTA: 0.276
ATAGGGGG: -0.0168
ATAGCGCG: -0.0338
GCAACGAC: -0.16
CCCGCCGG: -0.363
AACCAGAC: -0.0519
CCCCTTCG: -0.275
ATATTTGG: 0.356
ACCAGGGA: -0.199
AGCGACAT: 0.0358
GTAGTTTA: 0.216
CGCAAACC: -0.164
CATGCTGA: -0.0636
CGGAGCCC: -0.38
CGCAATCC: -0.0248
AATTATTG: 0.423
GCGGCCCA: -0.307
CCGGTCCC: -0.309
CCGAGATC: -0.334
AGTCGATG: 0.00263

Set 2 — method: RNA Bind-n-Seq; molecule type: RNA; matrix: in vitro; concentration: 365 nM; relative to: no-protein control; direction: higher = stronger binding; quantity: RBNS enrichment (R)
Target: RNA binding protein fox-1 homolog 2, RRM domain, GST-SBP tag (RBFOX2, Homo sapiens, UniProt O43251-10, residues 100-194)
Notes: natural RNA segment, single round, ends assumed
Residues (chain): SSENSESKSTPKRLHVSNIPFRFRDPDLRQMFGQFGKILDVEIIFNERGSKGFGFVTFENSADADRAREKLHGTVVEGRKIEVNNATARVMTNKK
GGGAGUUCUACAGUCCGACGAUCGUGUGUGUGCGCGCGCGCGCAUGUGCGCAUACUGUGUAAUGUUGGAAAAGGGAUGAAAUUGAAGAAACUGAAACUUCACGGAAUUUGGAAGAGUGGUUUUAACAUGGGACUGGAAUUCUCGGGUGCCAA: 1.31
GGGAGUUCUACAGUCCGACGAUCAUUUCCCCAUGGGCUUCUAAAAUGUCACCAUCUCCUCCCCUGCUGUGUCCUACUCCAUUUACUGGUUACAAGGUGAUGUCAACAAGAGAAGCUAUCACAACACCAGGGCUUGGAAUUCUCGGGUGCCAA: 0.396
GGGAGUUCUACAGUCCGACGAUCACUGGUGAAUUGGGGGAAAUAGAAGGAACUAGUAACUGAGACUCCUCCAGCCUCCUCCCUAUUGGAAUCCCAAUGGCUCCUGGAGUAGGAAAAAAGUUUAAACUACAUUCUGGAAUUCUCGGGUGCCAA: 0.328
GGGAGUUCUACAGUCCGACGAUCACUAACUCUGGUGAAGGGUUUGGAAACCAUAUGUGGUUCUAGAAUUAACUCCCCUUUCCCUCAAACUCUCACGGCCUGAUGAUUGUCCCUCUCAGGGAUGAGACAUGGACUGGAAUUCUCGGGUGCCAA: 0.456
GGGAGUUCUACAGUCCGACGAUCACAGGCCCCACGAAGCAGGGGCCACACCCUUGUCCUGGGCUGCCUUCUGGCUGGCUUCUCUCUGCCAGGGGCUCAGAAGGGGCACAAAAGGGGGUCAAGAAAAGAGCAACUGGAAUUCUCGGGUGCCAA: 0.349
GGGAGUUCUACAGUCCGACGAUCUCUUGGAAGUUACAAUUUAAGGUACCCCAAAAAAGUUGGAAAUAAAACAAAACAAACAUAAACAAUGAAGCACCCUGUGAAAUGCCAAAUGAGUCACUCCUUUUACCUUUUGGAAUUCUCGGGUGCCAA: 0.474
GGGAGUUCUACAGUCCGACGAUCCUGUUGUUUUAGAACUUUUUUAAAAAAACAGACCUCGUUUUAGAUUUAUAGCAUUGACUUUUACACACAUUCACACAAGAAAAAAAUCCUUUCAAAAUUCUUAAAUCUUCUGGAAUUCUCGGGUGCCAA: 0.795
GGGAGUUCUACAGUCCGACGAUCGCAUCUGUCUGCAGCUAAUGUACCUCCUGGACACCAGGAGGGGAAAAAGCACUUUUUCAAUUGUGCUGAGUUAGACAUCUGUGAGUUAGACUAUGGUGUCAGUGAUUUUUUGGAAUUCUCGGGUGCCAA: 0.506
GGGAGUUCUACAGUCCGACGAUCCAAACAUUCCUGUGUCACUUAAGAAUGUUAGUAGAGGUCGCUUCUUUGGAAAUUGAGGACUUUUUUUUUUCCUUUGAAAGUAUGGCAUCUGAAGAACACAGUAUCAUGACUGGAAUUCUCGGGUGCCAA: 0.445

Set 3 — method: RNA Bind-n-Seq; molecule type: RNA; matrix: in vitro; concentration: 200 nM; notes: whole 134-nt RNA, ends assumed; together with: 150 mM KCl; relative to: input library; direction: higher = stronger binding; quantity: log2 enrichment
Target: Ras GTPase-activating protein-binding protein 1, full length (G3BP1, Homo sapiens, UniProt Q13283)
UniProt Q13283, sequence (whole entry, looked up): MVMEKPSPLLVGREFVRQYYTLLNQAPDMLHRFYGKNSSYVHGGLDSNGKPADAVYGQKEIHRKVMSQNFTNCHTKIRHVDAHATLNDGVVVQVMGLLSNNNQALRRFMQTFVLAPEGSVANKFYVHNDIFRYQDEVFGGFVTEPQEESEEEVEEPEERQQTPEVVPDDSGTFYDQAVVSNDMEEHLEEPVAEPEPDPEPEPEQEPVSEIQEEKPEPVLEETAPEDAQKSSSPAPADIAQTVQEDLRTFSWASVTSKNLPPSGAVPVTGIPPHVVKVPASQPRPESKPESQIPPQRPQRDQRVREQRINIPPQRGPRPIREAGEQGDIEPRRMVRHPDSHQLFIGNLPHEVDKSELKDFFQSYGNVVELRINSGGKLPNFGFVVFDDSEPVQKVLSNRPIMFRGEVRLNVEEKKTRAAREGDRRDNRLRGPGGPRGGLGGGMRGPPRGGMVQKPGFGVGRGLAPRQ
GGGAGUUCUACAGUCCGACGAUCUGGAGCUACAGAUGGUGUCCUUCCUGCCAGGUGUGUGUGGAGGCCAGUAUGAAGCUGAAAAAGCAGGUGACAGUGUGUGGGGCUGCCAUCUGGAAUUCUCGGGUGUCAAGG: -0.199
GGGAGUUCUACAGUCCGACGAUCUGGCCUUGGUGGCAUGCGGGGAGGAAGAGGUGGCCUCAUGGAUCGUGGUGGUCCCGGUGGAAUGUUCAGAGGUGGCCGUGGUGGAGACAGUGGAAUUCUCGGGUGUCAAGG: 0.722
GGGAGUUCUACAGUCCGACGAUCUCCUCAAGUCCUGUGCUACACAUCGUAUGUACCGAAUCGGGGAGGAGGGAGGAAAGUAUUAUGUUACGCCGUUCGGAUCUGCACUUCCAGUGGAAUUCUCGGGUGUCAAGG: 0.519
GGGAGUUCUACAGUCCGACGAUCUCCUGUGCUACACAUCGUAUGUACCGAAUCAAACCCCCAAACCCCCAAACCCCCCCAAAAAAGUAUUAUGUUACGCCGUUCGGAUCUGCAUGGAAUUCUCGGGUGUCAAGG: 0.0691
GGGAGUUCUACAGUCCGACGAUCAAGUCCUGUGCUACACAUCGUAUGUACCGAAUCGGGGUUUGGGGAGGGGUUUGGGGAAAGUAUUAUGUUACGCCGUUCGGAUCUGCACUUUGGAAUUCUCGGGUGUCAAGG: 0.383
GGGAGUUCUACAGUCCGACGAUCGUCCUGUGCUACACAUCGUAUGUACCGAAUCGGGGUGGGGUUUGGGGUUUUUUUGGGGAAAGUAUUAUGUUACGCCGUUCGGAUCUGCACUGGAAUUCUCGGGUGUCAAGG: 0.291
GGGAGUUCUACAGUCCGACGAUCCUGUGCUACACAUCGUAUGUACCGAAUCGGGGUUUUUUUGGGGAAAAAGGGGUUUUUGGGGAAAGUAUUAUGUUACGCCGUUCGGAUCUGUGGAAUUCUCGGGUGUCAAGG: -0.209
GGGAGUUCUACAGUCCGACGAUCGCAGGAAGUAAAAACAAAUGCAAAUGCUUCGGAUAGUGGCAGGGGUGGGGGUUGCUAAGGAAAGGGUGGGAUGGGAGUGGGUAAAGAGUUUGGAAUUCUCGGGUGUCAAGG: 0.469
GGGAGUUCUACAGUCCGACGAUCUCCUGUGCUACACAUCGUAUGUACCGAAUCGGGGAAAGGGGUUUGGGGAAAAAAAGGGGAAAGUAUUAUGUUACGCCGUUCGGAUCUGCAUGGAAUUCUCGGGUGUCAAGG: 0.627
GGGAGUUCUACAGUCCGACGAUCUUUUACAACCCCAAUUUAAAGAAAGUUGUAGAGGCCCACAAGAUCGUUCUCUGCGCUGUAAGCCAUGUUUUCAUGCUGCUUUUCAAUGUGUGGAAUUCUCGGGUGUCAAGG: -1.33

Set 4 — method: protein binding microarray; molecule type: double-stranded DNA, one strand shown; matrix: in vitro; concentration: not given; relative to: not given; direction: higher = stronger binding; quantity: E-score
Target: Histone acetyltransferase KAT6A, winged helix 2, GST fusion (KAT6A, Homo sapiens, UniProt Q92794, residues 85-181)
Notes: 8-mer, flanks averaged, mean of 2 arrays, mostly near background
Construct (chain): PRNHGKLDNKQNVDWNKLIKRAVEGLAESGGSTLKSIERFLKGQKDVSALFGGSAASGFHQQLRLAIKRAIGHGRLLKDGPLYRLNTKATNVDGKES
GTGGCCTA: -0.149
ACCTGACT: -0.046
CCGTCCCG: 0.115
GGCAACAA: 0.0518
CACTCAAA: 0.118
CATGCCGC: 0.21
CCTACCAC: -0.218
AAACGGAG: 0.11
TAGAAGAA: -0.00086
ACCTGCTA: -0.0636
GTCGTCAA: -0.0397
AGGAAGAC: -0.0156
AATACATC: -0.0603
GTTACGTA: -0.277
ACGCAAAG: -0.00138
CCTGTTAA: -0.0271
ACGGACAC: -0.0387
CCTGCTCG: 0.0134
